# Assay results collected from several papers.
# A part holds a random share of what one study measured. Positions count from the first letter of the parent shown.

# Block 1
# Target: RNA binding protein fox-1 homolog 2, RRM domain, GST-SBP tag (RBFOX2, Homo sapiens, UniProt O43251-10, residues 100-194)
# Technique: RNA Bind-n-Seq
# Form: RNA
# Medium: in vitro
# Concentration: 365 nM
# Setting: natural RNA segment, single round, ends assumed
# Reference: no-protein control
# Reading: higher = stronger binding
# Shared flanks, not repeated: GGGAGUUCUACAGUCCGACGAUC … UGGAAUUCUCGGGUGCCAA
# Construct (chain): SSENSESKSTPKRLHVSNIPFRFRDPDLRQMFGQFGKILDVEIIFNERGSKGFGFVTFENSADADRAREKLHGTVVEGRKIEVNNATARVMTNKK
Oligonucleotide,RBNS enrichment (R)
AGUUGUUUUACCUUUCAUCCCAAUCUGAAAAGUUUUAAUAAAUGCUGAGCUUAUUCUUAGGGUAUGACCUGGCAUUAUUUCCAGUGACUAGUCAGGCAUUAUGCCUGAUG,0.25
AGGCAGCAUUGCUUGAACCCAGGAGGUGGAGGUUGCAGUGAGCCAAGAUCACACCACUGCACUCCAGCCUGGGCGACAGAGGGAGACACUGUCUCCAAAAGAAAGAAAUC,0.455
UUAAAAACCCCACCAUUUGGAGAAUUACAAGGGUUUUGUCCUGAAUUGUAGUGUUGGCAAGCCCAAGCCACUCGUGCUAACUGCUUUUUGUCUCGGUUGCUAUUCCAAGA,0.525
GUGUUGACUGUGUCAUUAGUCCUUUGUCUAAGUAGGGCCAGGGCACCGUAUUCCUCUCCCAGGUGUUUGUGGGGCUGGAAGGACCUGCUCCCACAGGGGCCAUGUCCUCU,0.385
GUGUUUUUUGUCCAUUAAAGUGUAUCUUUGUCCAUCCUAUAAGAUUAAAGGAAAGAAAAAGCAUCUCAAAUGAGUGUAAGUUGUUCUUGAGAAAAAAAUGUAUCAGACUU,0.667
UUAGAUAAUAACAAGUGAUUAAGAAAGGGGAGAUAUGGUUUUAUACUCAUAACAAUUUCCUGUGCCAUUCUCUGUACACAGAGGUGAUUCAUUUACUCUCCCAUUAGUAG,0.402
GAAGCCUGUGCACAAGUAGCAUGGGCACCUGGAAAACUUGAACCUGGAAGGAAAGAUUCCCAGCAUGCAGUGCUCUCUCCUCCAGGGAGGAGAAUGUGUGCUGGGCUAUG,0.421
GCCAGGCCCUGCUGGAAGAGCUGGAGCACUUCGAGCAAUCGGACAUGCCUAAGGGGAGGCCCAACACCAUGAACAACUACGGGGUGCUGCUGCACGAGCUCGGGCUGGAC,0.704
UUCAGUUUGUCCCUGAGACCCCUGAGUGGCCUUUGCUUCUCCAGGGUACUGGGUUGAAGAUCCAGCCACUUAAUUUCCCCUCUGAUUGUUUUGAUAUCUGAGAGACAGAA,4.39
AAUGAUGGUAAAACAGCAUCAUCAGUAAGCUAUCUUAUAUGCCUCAUCCUGUGAGUUUGAGCUUCAGGAAACAUGAGUAAAAGUAUAUGUAAUGUAUAUAGUCGUAUAUG,0.284
AGGAAACCGGAUGCCAACUUCCCACGGGUUUACUGUGCCUCUGGCAUCCAGGGUCUUCAGUUUCCCGUGCUUGGCUCUUUGGGGUUCAUGUGUCAUGUUGCUUAUGACCC,0.233
GCAGAUCCUCUCCUCAGUCCGUGAAUCAGCACAGCUUGGAUUGAGCUUUACAACUAACAGCGCGCUAGAUGGCAGUUAAUUCGCAGUUAAAGAUAAUGCUUUUUAUUUAC,0.472

# Block 2
# Target: ABI1, truncated, D143A, DHFR fusion (Arabidopsis thaliana)
# Technique: DHFR PCA, deep sequencing
# Medium: yeast
# Setting: methotrexate growth selection, single substitutions
# Together with: (+)-ABA 1.4 µM
# Reference: wild-type fitted maximum
# Reading: higher = stronger binding
# Starting sequence: PYL1, truncated, DHFR fusion (Arabidopsis thaliana); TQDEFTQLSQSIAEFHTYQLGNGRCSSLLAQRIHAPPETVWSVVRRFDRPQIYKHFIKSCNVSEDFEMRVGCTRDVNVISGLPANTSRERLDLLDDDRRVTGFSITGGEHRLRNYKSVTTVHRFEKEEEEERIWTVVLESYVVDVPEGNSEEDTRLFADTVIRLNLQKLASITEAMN
Variant,relative binding score
E130T,62.2%
E128C,61.5%
L138T,-5.51%
D75T,82.2%
T17Q,9.27%
H16T,10.8%
G107W,-0.34%
Q167P,4.76%
F56H,-0.584%
G107F,-2.29%
F157H,12%
F66A,30.5%
Q10Y,15%
L112G,-3.15%
T17G,-2.38%
N114H,20.5%
Y18E,-3.24%

# Block 3
# Target: UBE2T UBC core domain (UniProt Q9NPD8)
# Technique: yeast two-hybrid
# Medium: yeast
# Setting: mostly zero background
# Reference: not given
# Reading: higher = stronger interaction
# B1: RNF115 RING domain (UniProt Q9Y4L5); chain TQEQVDMGLECPVCKEDYTVEEEVRQLPCNHFFHSSCIVPWLELHDTCPVCRKSLNGEDSTR
# B2: RNF7 RING domain (UniProt Q9UBF6); chain AICRVQVMDACLRCQAENKQEDCVVVWGECNHSFHNCCMSLWVKQNNRCPLCQQDWVVQRIGK
# B3: UBE4B RING domain (UniProt O95155); chain KNARAEIDYSDAPDEFRDPLMDTLMTDPVRLPSGTIMDRSIILRHLLNSPTDPFNRQTLTESMLEPVPELKEQIQAWMREKQNSDH
# B4: TRIM2 RING domain (UniProt Q9C040); chain VRQIDKQFLICSICLERYKNPKVLPCLHTFCERCLQNYIPAHSLTLSCPVCRQTSILPEKGV
# B5: RNF17 RING domain (UniProt Q9BXT8); chain SQPWGAAEIQCTRCGRRVSRSSGHHCELQCGHAFCELCLLMTEECTTIICPDCEVATAVNTRQR
# B6: TRIM74 RING domain (UniProt Q86UV6); chain SLLELEDWLQCPICLEVFKESLMLQCGHSYCKGCLVSLSYHLDTKVRCPMCWQVVDGSSSLP
# B7: RNF11 RING domain (UniProt Q9Y3C5); chain RDGSEKKIRECVICMMDFVYGDPIRFLPCMHIYHLDCIDDWLMRSFTCPSCMEPVDAALLSS
# B8: SHPRH RING domain (UniProt Q149N8); chain KTSGGVNPEPCPICARQLGKQWAVLTCGHCFCNECISIIIEQYSVGSHRSSIKCAICRQTTSHKEISY
# B9: TRIM28 RING domain (UniProt Q13263); chain GAEALELLEHCGVCRERLRPEREPRLLPCLHSACSACLGPAAPAAANSSGDGGAAGDGTVVDCPVCKQQCFSKDIVE
# B10: TRIM47 RING domain (UniProt Q96LD4); chain MDGSGPFSCPICLEPLREPVTLPCGHNFCLACLGALWPHRGASGAGGPGGAARCPLCQEPFPDGLQLR
# Residues (chain): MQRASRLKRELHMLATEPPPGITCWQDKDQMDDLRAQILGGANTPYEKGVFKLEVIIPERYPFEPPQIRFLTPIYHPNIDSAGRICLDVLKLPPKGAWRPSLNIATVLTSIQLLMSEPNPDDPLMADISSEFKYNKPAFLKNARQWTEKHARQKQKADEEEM
Sequence,lacZ reporter activity
B1 (RNF115 RING domain),0
B2 (RNF7 RING domain),0
B3 (UBE4B RING domain),0
B4 (TRIM2 RING domain),0
AAQLLEEKLTCAICLGLYQDPVTLPCGHNFCGACIRDWWDRCGKACPECREPFPDGAELR (TRIM65 RING domain (UniProt Q6PJ69)),0
B5 (RNF17 RING domain),0
B6 (TRIM74 RING domain),0
B7 (RNF11 RING domain),0
B8 (SHPRH RING domain),0
EIKDYKARLTCPCCNMRKKDAVLTKCFHVFCFECVKTRYDTRQRKCPKCNAAFGANDFHR (RNF20 RING domain (UniProt Q5VTR2)),0
B9 (TRIM28 RING domain),0
B10 (TRIM47 RING domain),0

# Block 4
# Organism: Saccharomyces cerevisiae
# Effect on: binding
# Technique: competitive growth deep sequencing
# Form: peptide
# Strain: cyclin E1-Cln2 fusion strain
# Concentration: concentration not given
# Setting: peptide tiling library
# Reading: direction not given
Sequence,growth enrichment score
NRLLKLFTRCLTPLVP,-0.0273
GPVKLEFDVSDGAT,0.233
HRRRLLFACSPPPASQ,0.536
PPTFLSTGEIHAFLSS,0.538
NESHLDKEHDAVEVAD,0.671
NLEPNAEFDKRTEFIT,0.623
RRRRLLFWDKETQI,0.538
ELGMEHCEKFEISETS,1.05
AGSAKRRLFGEDPPKE,3.54
VSRNLRSSLKSSLHTL,0.0404
ATNSSHTDAHEILVSD,0.276
SFLIEYEFLIPPSLKP,1.63
RTEALEQGGLPKKLIF,0.638
SPREGHMMDALYAQVK,1.21
YLYLLLTQSLWCRV,0.676
LAKRALKYTD,-0.242
KVRRNLFNQELLSP,1.73
